Experimental data gathered from unrelated publications.
A part holds a random share of what one study measured.

Series 1
Target: Interferon regulatory factor 7, full length, phosphomimetic (IRF7, Homo sapiens, UniProt Q92985, residues 1-503, S101K/S471D/S472D/S475D/S476D/S477D/S483D/S484D/S487D)
Technique: protein-binding microarray
Form: double-stranded DNA, one strand shown
Matrix: in vitro
Tested at: 250 nM
Notes: 60-bp whole probe
With: salmon DNA 0.4 mg/ml
Relative to: random background probes
Reading: higher = stronger binding
Quantity: log fluorescence
Shared flanks, not repeated: GCCTAGCAC … GTCTTGATTCGCTTGACGCTGCTG
Construct (chain): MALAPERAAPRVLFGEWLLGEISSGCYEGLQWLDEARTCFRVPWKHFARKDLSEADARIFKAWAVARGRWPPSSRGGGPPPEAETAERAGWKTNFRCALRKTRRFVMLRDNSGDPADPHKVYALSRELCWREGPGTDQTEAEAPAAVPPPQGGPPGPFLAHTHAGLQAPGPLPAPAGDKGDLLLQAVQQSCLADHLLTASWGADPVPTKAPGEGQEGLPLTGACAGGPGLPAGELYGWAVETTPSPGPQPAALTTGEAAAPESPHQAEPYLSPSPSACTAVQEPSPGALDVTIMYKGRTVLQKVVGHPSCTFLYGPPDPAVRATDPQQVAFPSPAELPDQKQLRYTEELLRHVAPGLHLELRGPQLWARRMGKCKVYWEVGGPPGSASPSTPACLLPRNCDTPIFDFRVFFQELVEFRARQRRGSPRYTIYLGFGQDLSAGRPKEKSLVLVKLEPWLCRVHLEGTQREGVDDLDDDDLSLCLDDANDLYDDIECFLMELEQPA
TCAATTATTTATTGTAGCACTGTGCTA: 0.0564 z-score
GACGGTCTCCTACTGCTGGCGTGCTAG: -0.323 z-score
TTAGGTATCGGGTTTCGGTTGGTGCTA: 7.39 z-score
GACGGACTGTTTATCCTGACGTGCTAG: -0.0178 z-score
TTAGGTATACTTCTCCTTTAGTGCTAG: 0.311 z-score
CCCTTTCTCTCTGTGACACAGTGCTAG: 2.34 z-score
GACGGTTTCGGGTTTCGGGCCGTGCTA: 10.9 z-score
GACGGTTCCTGTTTCGGGACGTGCTAG: 2.96 z-score
CAAACACTGGTTTTTACTTTGTGCTAG: 0.317 z-score
GACGGACTGCTTCTCATGACGTGCTAG: -0.264 z-score

Series 2
Target: RING finger protein unkempt homolog, zinc fingers 1-6, GST-SBP tag (UNK, Homo sapiens, UniProt Q9C0B0, residues 30-357)
UniProt Q9C0B0, sequence (30-357, looked up): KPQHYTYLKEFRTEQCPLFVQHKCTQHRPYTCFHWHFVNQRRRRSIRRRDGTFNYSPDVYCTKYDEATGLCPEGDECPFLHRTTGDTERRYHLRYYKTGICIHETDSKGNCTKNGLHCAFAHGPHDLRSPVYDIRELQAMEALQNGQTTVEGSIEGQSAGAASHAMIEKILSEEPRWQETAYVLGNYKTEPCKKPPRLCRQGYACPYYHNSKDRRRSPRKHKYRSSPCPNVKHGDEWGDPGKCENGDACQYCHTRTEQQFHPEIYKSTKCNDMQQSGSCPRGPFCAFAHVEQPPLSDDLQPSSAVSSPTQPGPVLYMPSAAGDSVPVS
Technique: RNA Bind-n-Seq
Form: RNA
Matrix: in vitro
Tested at: not given
Notes: RNA with constant flanks, human-mouse chimeric sites, ends assumed
Relative to: input RNA pool
Reading: higher = stronger binding
Quantity: bound/input enrichment
GGGAGUUCUACAGUCCGACGAUCGUUGCCAGCUUCCGGUUCCGUUGGGCUCGGUUCUCUCCUGAGCUACGUGUCUCUACGCUCUCAAUCCGCCAUCCAACGGCAGUCAUGCAGGUAAUGCUGCAGUUUGUGCCCAGCCGGCAGCAACAGAGGAUUGAGCAUCA: 0.104 ratio
GGGAGUUCUACAGUCCGACGAUCAACUUCGUGCAUCGGUUUCCCUUUGUAGCUGUUUCAAUUGGCUUCCUUGUAAAUAAAGAGAUGGAGUUUGGAAUUGUGUACAGUUGUGUGGAAGAUAAGAUGUACACCGGCAGGAAAGGGCAACAGAGGAUUGAGCAUCA: 0.373 ratio
GGGAGUUCUACAGUCCGACGAUCUAAGUCCUGUGCCAGCACUUCGCUCAUAAAGUUUUAAAUUCAAGAAAAAUAGUGUUUGUUUCCUGAUUAUUGUAUCCAAUACUUUGCGUACUAUGUGACUCACUCUUACUGAUAAUAAAACAACAGAGGAUUGAGCAUCA: 3.12 ratio
GGGAGUUCUACAGUCCGACGAUCGGGACUGAUUCAUCCCAAGGACAGGCCACCCCAUUUGAUGCCUGGACUGAUGACAGUAUGGAAGGGCCUAGUCAAAAUUUUGAAGCUGAGUCAAUUCAGGAUGCCAUGCAUAUGGCAGAGCAACAGAGGAUUGAGCAUCA: 0.247 ratio

Series 3
Target: Ras GTPase-activating protein-binding protein 1, RRM domain (G3BP1, Homo sapiens, UniProt Q13283)
UniProt Q13283, sequence (whole entry, looked up): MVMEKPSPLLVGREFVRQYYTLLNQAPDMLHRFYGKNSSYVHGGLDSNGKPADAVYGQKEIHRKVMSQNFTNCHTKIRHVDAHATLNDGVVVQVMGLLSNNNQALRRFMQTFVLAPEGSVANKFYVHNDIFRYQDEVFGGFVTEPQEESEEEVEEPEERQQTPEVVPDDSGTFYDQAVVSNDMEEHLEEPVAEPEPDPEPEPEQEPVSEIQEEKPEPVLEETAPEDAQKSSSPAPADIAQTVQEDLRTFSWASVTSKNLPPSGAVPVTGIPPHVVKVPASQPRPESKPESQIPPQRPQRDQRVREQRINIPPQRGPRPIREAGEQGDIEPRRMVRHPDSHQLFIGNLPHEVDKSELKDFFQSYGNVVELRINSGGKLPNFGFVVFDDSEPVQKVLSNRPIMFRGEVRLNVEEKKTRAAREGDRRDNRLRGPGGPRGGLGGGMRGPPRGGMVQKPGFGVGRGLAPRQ
Technique: RNA Bind-n-Seq
Form: RNA
Matrix: in vitro
Tested at: 1 µM
Notes: whole 134-nt RNA, ends assumed
With: 150 mM KCl
Relative to: input library
Reading: higher = stronger binding
Quantity: log2 enrichment
Shared flanks, not repeated: GGGAGUUCUACAGUCCGACGAUC … UGGAAUUCUCGGGUGUCAAGG
CAAGUCCUGUGCUACACAUCGUAUGUACCGAAUCGGGGUUUGGGGAGGGGUGGGGAAAGUAUUAUGUUACGCCGUUCGGAUCUGCACUUC: 0.972
UCAAGUCCUGUGCUACACAUCGUAUGUACCGAAUCGGAAAGGAAAAAGGAAAGGAAAGUAUUAUGUUACGCCGUUCGGAUCUGCACUUCC: -0.132
ACCAUGCAGGUGGGCAUCUUUGGGAAGUGGGGCAAGGGGGGGAUAGGGAGGGGGGUAACACUUUGGGAACAGGUGGUCCCAGGUCGUUUC: -0.574
CCUGUGCUACACAUCGUAUGUACCGAAUCGGGUUUUUUUGGGAAAAAGGGAAAAAAAGGGAAAGUAUUAUGUUACGCCGUUCGGAUCUGC: -0.224
UCAAGUCCUGUGCUACACAUCGUAUGUACCGAAUCGGCCCGGCCCGGGGCCCGGAAAGUAUUAUGUUACGCCGUUCGGAUCUGCACUUCC: -0.524
CUCAAGUCCUGUGCUACACAUCGUAUGUACCGAAUCGGGUGGGUUUGGGUGGGAAAGUAUUAUGUUACGCCGUUCGGAUCUGCACUUCCA: 0.679
GCAGGAAGUAAAAACAAAUGGAAAUGCUUCGGAUAGUGGCAGGGGUGAGGGUUGCUAAGGAAAGGGUGGGAUGGGAGUGGGUAAAGAGUU: 0.599
AGUCCUGUGCUACACAUCGUAUGUACCGAAUCGGGCCCCCGGCCCCCGGGCCCCCGGAAAGUAUUAUGUUACGCCGUUCGGAUCUGCACU: -0.546
GCAGGAAGUAAAAACAAAUGGAAAUGCUUCGGAAAAUGGCAGGGGUGGGGGUUGCUAAGGAAAGGGUGGGAUGGGAGUGGGUAAAGAGUU: 1.26

Single results of other studies
PhoQ, residues 284 288 289 292 302 303 AAQSYM  fold induction (PhoP, residues 12 14 15 18 19 SGWQI (Escherichia coli, UniProt P23836); Sort-seq, item: YFP reporter; E. coli; PhoQ-PhoP variant library, with: 10 µM Mg2+; relative to: high Mg2+ state, higher = stronger signaling): 1.12

Some of these lines once more (series 1):
TTAGGTATCGGGTTTCGGTTGGTGCTA: 7.39 z-score
GACGGTCTCCTACTGCTGGCGTGCTAG: -0.323 z-score
GACGGTTCCTGTTTCGGGACGTGCTAG: 2.96 z-score
